Measurements from different studies.
A part holds a random share of what one study measured. Positions count from the first letter of the parent shown.

Series 1
Target: Interferon regulatory factor 5, full length, phosphomimetic (IRF5, Homo sapiens, UniProt Q13568-2, residues 1-514, K96S/S451D/S453D/S456D/S462D)
Technique: protein-binding microarray
Molecule type: double-stranded DNA, one strand shown
Medium: in vitro
Concentration: 250 nM
Notes: 60-bp whole probe
Added: salmon DNA 0.4 mg/ml
Relative to: random background probes
Direction: higher = stronger binding
Constant ends, left off below: GCCTAGCAC … GTCTTGATTCGCTTGACGCTGCTG
With `TTAGGTGTCGGACTGGGTTAGTGCTAG` the log fluorescence was -0.513 z-score.
For `GACGGTATTGACACTGGGGACGTGCTA`, the log fluorescence was 0.171 z-score.
With `GACGCACTGGGTTTCGGGACGTGCTAG` the log fluorescence was 2.47 z-score.
`GGCGGTCTCCTACTGCTGACGTGCTAG` has a log fluorescence of -0.908 z-score.
`TTACGTATCGACACTGGGTTAGTGCTA` gave a log fluorescence of 3.36 z-score.
`TGAGATCTCAGACTGGATTAGTGCTAG` gave a log fluorescence of -0.355 z-score.
The log fluorescence of `TTAGGTCTCCCTCTCCTTTAGTGCTAG` is reported as -0.151 z-score.
For `TTAGGTTACCTTATCCTTTAGTGCTAG`, the log fluorescence was 0.038 z-score.
The log fluorescence of `GACGATATCGGGTATCAAGACGTGCTA` is reported as 2.03 z-score.

Series 2
Target: Phosphate system positive regulatory protein PHO4, full length, GST-tagged (PHO4, Saccharomyces cerevisiae, UniProt P07270, residues 1-312)
Technique: competition protein-binding microarray
Molecule type: double-stranded DNA, one strand shown
Medium: in vitro
Concentration: 2 µM
Notes: whole 60-bp probe, lowest competitor level
Added: Cbf1 competitor, 0.05 µM
Direction: higher = stronger binding
Constant ends, left off below: … GTCTTGATTCGCTTGACGCTGCTG
Residues (chain): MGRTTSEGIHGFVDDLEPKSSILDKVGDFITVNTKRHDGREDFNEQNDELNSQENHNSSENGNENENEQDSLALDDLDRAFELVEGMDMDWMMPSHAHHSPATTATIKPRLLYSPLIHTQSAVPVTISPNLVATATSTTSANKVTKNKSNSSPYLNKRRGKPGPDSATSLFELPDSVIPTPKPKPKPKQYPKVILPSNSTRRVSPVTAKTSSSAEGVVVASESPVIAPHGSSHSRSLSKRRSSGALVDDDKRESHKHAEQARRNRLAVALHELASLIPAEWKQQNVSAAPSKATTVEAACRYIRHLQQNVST
`CATACCCAACCTTGTTGGGTGGGTGAAGATATTTGT` has a fluorescence intensity of 3860 a.u.
`CTAACGAAGGTTTTGCACGTGTTTTACAAGCCAAGT` gave a fluorescence intensity of 18500 a.u.
For `CTTTCCCGATCTTGTCACATAACTTTAGCACATTTG`, the fluorescence intensity was 4500 a.u.
With `AAATTACTAAGTTGTCACTCAACTTACCCCGTATGA` the fluorescence intensity was 3570 a.u.
`AAAGCGGTAATTTTTCACGTGGCGTCAAATATCTAT` gave a fluorescence intensity of 14100 a.u.
With `AAATTACTAAGTTGGCCTGTGGGTGACGCCGTATGA` the fluorescence intensity was 4320 a.u.
`GATGTTCTTTTTCGCCACATGCTTCATGACGATTTA` has a fluorescence intensity of 10100 a.u.
The fluorescence intensity of `AAAAATATGCATTTTCTCATGACAAATTCATTCGGA` is reported as 3780 a.u.
`CGTCCTAGTGATTGTGCGGTGGGTGCCATGAGGAAG` has a fluorescence intensity of 7010 a.u.

Series 3
Target: ABI1, truncated, D143A, DHFR fusion (Arabidopsis thaliana)
Technique: DHFR PCA, deep sequencing
Medium: yeast
Notes: methotrexate growth selection, single substitutions
Added: (+)-ABA 710 µM
Relative to: wild-type fitted maximum
Direction: higher = stronger binding
Starting sequence: PYL1, truncated, DHFR fusion (Arabidopsis thaliana); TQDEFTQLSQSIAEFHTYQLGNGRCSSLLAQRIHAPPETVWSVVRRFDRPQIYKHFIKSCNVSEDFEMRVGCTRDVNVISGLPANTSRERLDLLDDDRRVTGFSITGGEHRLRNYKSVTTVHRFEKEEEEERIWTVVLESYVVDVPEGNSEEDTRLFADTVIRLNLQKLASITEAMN
`D95V` — result for “relative binding score”: 83.1%.
For `R45N`, “relative binding score” read 74.8%.
`S27K`: “relative binding score” 85.3%.
`S9Q` — result for “relative binding score”: 105%.
`H34V` — result for “relative binding score”: 98.7%.

Further values, each from its own experiment
`PhoQ, residues 284 288 289 292 302 303 ALVSVA` gave a fold induction of 16.6 (PhoP, residues 12 14 15 18 19 LHTVM (Escherichia coli, UniProt P23836); Sort-seq, measured: YFP reporter; E. coli; PhoQ-PhoP variant library, added: 10 µM Mg2+; relative to: high Mg2+ state, higher = stronger signaling).

A few entries again (series 3):
For `R45N`, “relative binding score” read 74.8%.
`S27K`: “relative binding score” 85.3%.
`S9Q` — result for “relative binding score”: 105%.
